# Measured values collected from several papers.
# Organism: Acinetobacter baumannii
Compound,test,system,setting,how to read,MIC
CC(C)C[C@@H](NC(=O)[C@@H](CC(C)C)NC(=O)[C@@H](CCCCN)NC(=O)[C@@H](CCCCNC(=O)[C@@H](CC(C)C)NC(=O)[C@@H](CC(C)C)NC(=O)[C@@H](CCCCNC(=O)[C@@H](CC(C)C)NC(=O)[C@@H](CCCCN)NC(=O)[C@@H](CCCCNC(=O)[C@@H](CC(C)C)NC(=O)[C@H](N)CCCCN)NC(=O)[C@@H](CC(C)C)NC(=O)[C@H](N)CCCCN)NC(=O)[C@@H](CC(C)C)NC(=O)[C@@H](CCCCN)NC(=O)[C@@H](CCCCNC(=O)[C@@H](CC(C)C)NC(=O)[C@H](N)CCCCN)NC(=O)[C@@H](CC(C)C)NC(=O)[C@H](N)CCCCN)NC(=O)[C@@H](CC(C)C)NC(=O)[C@@H](CC(C)C)NC(=O)[C@@H](CCCCNC(=O)[C@@H](CC(C)C)NC(=O)[C@@H](CCCCN)NC(=O)[C@@H](CCCCNC(=O)[C@@H](CC(C)C)NC(=O)[C@H](N)CCCCN)NC(=O)[C@@H](CC(C)C)NC(=O)[C@H](N)CCCCN)NC(=O)[C@@H](CC(C)C)NC(=O)[C@@H](CCCCN)NC(=O)[C@@H](CCCCNC(=O)[C@@H](CC(C)C)NC(=O)[C@H](N)CCCCN)NC(=O)[C@@H](CC(C)C)NC(=O)[C@H](N)CCCCN)C(N)=O,broth microdilution,ATCC 19606,37 °C,,2 µg/mL
COc1ccc(-c2nc3ccc(-c4c[nH]c(N)n4)cc3[nH]2)cc1,"microbial growth, broth dilution",AB5075,,,≥ 200 µM
COc1ccc2ccc3c(c2c1)C=[N+]1C2CCCCC2[N+]2=Cc4cccc(C)c4[O][Au-]21[O]3.F[P-](F)(F)(F)(F)F (stereo not shown),"bacterial growth, broth microdilution",carbapenem-resistant clinical isolate,24 h,,> 20 µM
CNS(=O)(=O)c1ccc(-n2nnc(/C(C)=N/NC(=N)N)c2C)cc1,"microbial growth, broth dilution",AB5075,,,> 64 µg/mL
CC1=CC2(C)C(=C(C)C3C4CC(C)CC(C)C4C4Oc5ccc(cc5)CC5(O)NC(=O)C(=C(O)C2C43)C5Nc2ncnc3c2ncn3C2OC(CO)C(O)C2O)C1C (stereo not shown),broth microdilution,ATCC BAA-1605,with: colistin 0.1 µM,,3.1 µM
CC(C)C[C@H](NC(=O)[C@H](CC(N)=O)NC(=O)[C@H](CCCNC(=N)N)NC(=O)[C@@H](CC(C)C)NC(=O)[C@H](Cc1ccc2ccccc2c1)NC(=O)[C@H](CC(=O)O)NC(=O)[C@H](CCCCN)NC(=O)[C@@H](CC(C)C)NC(=O)[C@H](CCCNC(=N)N)NC(=O)[C@H](CCC(N)=O)NC(=O)[C@@H](NC(=O)[C@@H](CC(C)C)NC(=O)[C@H](CCCNC(=N)N)NC(=O)[C@H](CCCCN)NC(=O)[C@H](Cc1ccccc1)NC(=O)CN)C(C)C)C(=O)N[C@H](C(N)=O)C(C)C,broth microdilution,B2367-12,,,3.1 µM
CCn1cc(C(=O)NCCNCCO)c(=O)c2cc(OC)c(OCc3cccc(F)c3)cc21,,ATCC 19606,,≥80% growth inhibition,< 0.25 µg/mL
CC[C@@H](C)[C@@H](NC(=O)[C@@H](C)NC(=O)[C@@H](CCCCN)NC(=O)[C@@H](CC(C)C)NC(=O)[C@@H](CC(C)C)NC(=O)[C@H](NC(=O)[C@@H](CCCCN)NC(=O)[C@@H](CC(C)C)NC(=O)[C@@H](CCCCN)NC(=O)[C@@H](CCCCN)NC(=O)[C@@H](CCCCN)NC(=O)[C@@H](CCCCN)NC(=O)[C@@H](C)NC(=O)[C@@H](CCCCN)NC(=O)[C@@H](CO)NC(=O)[C@@H](Cc1ccccc1)NC(=O)[C@H](NC(=O)[C@@H](CCCCN)NC(=O)[C@@H](CC(C)C)NC(=O)[C@@H](Cc1ccccc1)NC(=O)[C@@H](CO)NC(=O)[C@@H](CCCCN)NC(=O)[C@@H](Cc1c[nH]c2ccccc12)NC(=O)[C@@H](CCCCN)NC(C)=O)[C@H](C)O)[C@H](C)O)C(=O)N[C@H](CO)C(=O)N[C@H](CCCCN)C(N)=O,,"964, Mueller-Hinton broth","24 h, 37 °C",,1.2 µM
COc1ccc2ccc3c(c2c1)C=[N+]1C2CCCCC2[N+]2=Cc4ccc(-c5ccccc5)cc4[O][Au-]21[O]3.F[P-](F)(F)(F)(F)F (stereo not shown),"bacterial growth, broth microdilution",carbapenem-resistant clinical isolate,24 h,,> 20 µM
CC(C)S[C@H]1[C@H](O)[C@@H](N)[C@@H](O[C@H]2[C@H](O[C@@H]3O[C@H](CO)[C@@H](O[C@H]4O[C@@H](CN)[C@@H](O)[C@H](O)[C@H]4N)[C@H]3O)[C@@H](O)[C@H](N)C[C@@H]2N)O[C@@H]1CO,,reference strain,,,16 to 32 µg/mL
CC(C)C(O)C(NC(=O)[C@H](Cc1ccc(O)cc1)NC(=O)C(Cc1ccc(O)c(Cl)c1)[N+](C)(C)C)C(=O)N[C@@H](C)C(=O)O (stereo partly shown),,ATCC 19606,,,> 100 µM
NCC1OC(OC2C(N)CC(N)C(OC3OC(CO)C(O)C(N)C3O)C2OCCCCCCCCCCCCn2cc(CNc3nc(NCc4cn(CCCCCCCCCCCCOC5C(OC6OC(CN)C(O)CC6N)C(N)CC(N)C5OC5OC(CO)C(O)C(N)C5O)nn4)nc(NCc4cn(CCCCCCCCCCCCOC5C(OC6OC(CN)C(O)CC6N)C(N)CC(N)C5OC5OC(CO)C(O)C(N)C5O)nn4)n3)nn2)C(N)CC1O (stereo not shown),"microbial growth, broth dilution",ATCC17978,,,64 µg/mL
Nc1nc(-c2ccc3nc(-c4ccccc4)[nH]c3c2)c[nH]1,,ATCC 19606,compound alone,,≥ 200 µM
CCCCCCCNS(=O)(=O)c1ccc(-n2nnc(/C(C)=N/NC(=N)N)c2C)cc1,"microbial growth, broth dilution",AB5075,,,64 µg/mL
CC(C)C[C@H](NC(=O)[C@H](CC(N)=O)NC(=O)[C@H](CCCNC(=N)N)NC(=O)[C@@H](CC(C)C)NC(=O)[C@H](Cc1ccc(-c2ccccc2)cc1)NC(=O)[C@H](CC(=O)O)NC(=O)[C@H](CCCCN)NC(=O)[C@@H](CC(C)C)NC(=O)[C@H](CCCNC(=N)N)NC(=O)[C@H](CCC(N)=O)NC(=O)[C@@H](NC(=O)[C@@H](CC(C)C)NC(=O)[C@H](CCCNC(=N)N)NC(=O)[C@H](CCCCN)NC(=O)[C@H](Cc1ccc(-c2ccccc2)cc1)NC(=O)CN)C(C)C)C(=O)N[C@H](C(N)=O)C(C)C,broth microdilution,B2367-12,,,3.1 µM
CC(C)C[C@@H]1NC(=O)[C@@H](CC(C)C)NC(=O)[C@H](CCN)NC(=O)[C@@H](NC(=O)[C@H](CCN)NC(=O)[C@@H](N)[C@@H](C)O)CCNC(=O)[C@H]([C@@H](C)O)NC(=O)[C@H](CCN)NC(=O)[C@H](CCN)NC1=O,broth microdilution,"ATCC 9955, CAMHB with polysorbate-80",16 h,,> 64 µg/mL
COc1ccc2ccc3c(c2c1)C=[N+]1C2CCCCC2[N+]2=Cc4ccc(F)cc4[O][Au-]21[O]3.F[P-](F)(F)(F)(F)F (stereo not shown),"bacterial growth, broth microdilution",carbapenem-resistant clinical isolate,24 h,,20 µM
CCOC(=O)c1ccc2c(c1)n(CC)[c]([Au-]([Cl])([Cl])[Cl])[n+]2CC,broth dilution,DSM 30007,"20 h, 37 °C",,7.3 µM
Oc1c(Br)cc(Br)c2nc3c(C(F)(F)F)cc(C(F)(F)F)cc3nc12,,,range over strains,,12.5 to 75 µM
CC(=O)N[C@H](CCCCN)C(=O)N[C@H](CC(C)C)C(=O)N[C@H](CCCCN)C(=O)N[C@H](CO)C(=O)N[C@H](CC(C)C)C(=O)N[C@H](CC(C)C)C(=O)N[C@H](CCCCN)C(=O)N[C@@H](C(=O)N[C@H](CC(C)C)C(=O)N[C@H](CO)C(=O)N[C@H](CCCCN)C(=O)N[C@H](C)C(=O)N[C@H](CCCCN)C(=O)N[C@H](CCCCN)C(=O)N[C@H](CCCCN)C(=O)N[C@H](CCCCN)C(=O)N[C@H](CC(C)C)C(=O)N[C@H](CCCCN)C(=O)N[C@@H](C(=O)N[C@H](CC(C)C)C(=O)N[C@H](CC(C)C)C(=O)N[C@H](CCCCN)C(=O)N[C@H](C)C(=O)N[C@H](CC(C)C)C(=O)N[C@H](CO)C(=O)N[C@H](CCCCN)C(N)=O)[C@H](C)O)[C@H](C)O,,"649, Mueller-Hinton broth","24 h, 37 °C",,0.3 µM
C[C@H]1COc2c(N3CCN(C)CC3)c(F)cc3c(=O)c(C(=O)N[C@@H](CCCNC(=N)N)C(=O)N[C@@H](Cc4ccc(-c5ccccc5)cc4)C(=O)N[C@@H](CCCNC(=N)N)C(=O)N[C@@H](Cc4ccc(-c5ccccc5)cc4)C(=O)N[C@@H](CCCNC(=N)N)C(N)=O)cn1c23,broth microdilution,ATCC 1799,,,2.5 µM
COc1ccc2c(c1)[O][Au-]13[O]c4ccc5ccc(OC)cc5c4C=[N+]1C1CCCCC1[N+]3=C2.F[P-](F)(F)(F)(F)F (stereo not shown),"bacterial growth, broth microdilution",carbapenem-resistant clinical isolate,24 h,,> 20 µM
CCS(=O)(=O)[C@H]1[C@H](O)[C@@H](N)[C@@H](O[C@H]2[C@H](O[C@@H]3O[C@H](CO)[C@@H](O[C@H]4O[C@@H](CN)[C@@H](O)[C@H](O)[C@H]4N)[C@H]3O)[C@@H](O)[C@H](N)C[C@@H]2N)O[C@@H]1CO,,reference strain,,,> 128 µg/mL
CC[P+](CC)(CC)[Au-][S][C@@H]1O[C@H](COC(C)=O)[C@@H](O[C@@H]2O[C@H](COC(C)=O)[C@H](OC(C)=O)[C@H](OC(C)=O)[C@H]2OC(C)=O)[C@H](OC(C)=O)[C@H]1OC(C)=O,,NCTC 13420,,,66 µM
c1ccc(CN2CCOCCOCCN(CCCCCCCCCCCCCCN3CCOCCOCCN(CCCCCCCCCCCCCCN4CCOCCOCCN(Cc5ccccc5)CCOCCOCC4)CCOCCOCC3)CCOCCOCC2)cc1,,wild type,,,6 µM

# A few entries again:
Compound,test,system,setting,how to read,MIC
CC(C)C[C@H](NC(=O)[C@H](CC(N)=O)NC(=O)[C@H](CCCNC(=N)N)NC(=O)[C@@H](CC(C)C)NC(=O)[C@H](Cc1ccc2ccccc2c1)NC(=O)[C@H](CC(=O)O)NC(=O)[C@H](CCCCN)NC(=O)[C@@H](CC(C)C)NC(=O)[C@H](CCCNC(=N)N)NC(=O)[C@H](CCC(N)=O)NC(=O)[C@@H](NC(=O)[C@@H](CC(C)C)NC(=O)[C@H](CCCNC(=N)N)NC(=O)[C@H](CCCCN)NC(=O)[C@H](Cc1ccccc1)NC(=O)CN)C(C)C)C(=O)N[C@H](C(N)=O)C(C)C,broth microdilution,B2367-12,,,3.1 µM
CC(C)C[C@@H](NC(=O)[C@@H](CC(C)C)NC(=O)[C@@H](CCCCN)NC(=O)[C@@H](CCCCNC(=O)[C@@H](CC(C)C)NC(=O)[C@@H](CC(C)C)NC(=O)[C@@H](CCCCNC(=O)[C@@H](CC(C)C)NC(=O)[C@@H](CCCCN)NC(=O)[C@@H](CCCCNC(=O)[C@@H](CC(C)C)NC(=O)[C@H](N)CCCCN)NC(=O)[C@@H](CC(C)C)NC(=O)[C@H](N)CCCCN)NC(=O)[C@@H](CC(C)C)NC(=O)[C@@H](CCCCN)NC(=O)[C@@H](CCCCNC(=O)[C@@H](CC(C)C)NC(=O)[C@H](N)CCCCN)NC(=O)[C@@H](CC(C)C)NC(=O)[C@H](N)CCCCN)NC(=O)[C@@H](CC(C)C)NC(=O)[C@@H](CC(C)C)NC(=O)[C@@H](CCCCNC(=O)[C@@H](CC(C)C)NC(=O)[C@@H](CCCCN)NC(=O)[C@@H](CCCCNC(=O)[C@@H](CC(C)C)NC(=O)[C@H](N)CCCCN)NC(=O)[C@@H](CC(C)C)NC(=O)[C@H](N)CCCCN)NC(=O)[C@@H](CC(C)C)NC(=O)[C@@H](CCCCN)NC(=O)[C@@H](CCCCNC(=O)[C@@H](CC(C)C)NC(=O)[C@H](N)CCCCN)NC(=O)[C@@H](CC(C)C)NC(=O)[C@H](N)CCCCN)C(N)=O,broth microdilution,ATCC 19606,37 °C,,2 µg/mL
